Results of several laboratories.
Lines come from different studies, so protocols differ. ± gives the spread as reported. Converted amounts (≈) assume the structure as drawn.

With C=CC(=C)CC[C@]1(C)[C@H](C)C[C@H](OC)[C@@]23C(=C[C@H](OC(=O)[C@@H](C)CC)C[C@@H]12)[C@@H](OC(C)=O)O[C@H]3OC(C)=O the haemolysis was 16.3% (haemolysis; 100 µM).
C[C@@H](Oc1ccc(S(C)(=O)=O)cc1C(=O)N1C[C@@H]2C[C@]2(c2cc(C(F)(F)F)on2)C1)C(F)(F)F has a trough concentration of 66.7 nM (human male, plasma; oral, 5 mg once daily, 312 h).
For CC1(C)S[C@@H]2[C@H](NC(=O)[C@H](N)c3ccc(O)cc3)C(=O)N2[C@H]1C(=O)O, the AUC was 23100 ng·h/mL (male ICR mouse, kidney; oral, 3 mg/kg, 24 h).
With Cc1cc(Nc2ccc(C)c(Cl)c2)n2nc(C(F)(F)F)nc2n1 the maximum solubility was 100 µM (0.1 M sodium acetate with 0.01% Triton X-100; pH 5.5).
The Cmax median of Cn1c(-c2ccc(C(N)=O)cc2F)nnc1C(C)(C)Oc1c(F)cc(Cl)cc1F is reported as 83.4 ng/mL (young Japanese adults, plasma; oral, 10 mg single dose, day 1, high-dose multiple-dose study).
For O=C(O)[C@H](c1ccccc1Cl)N1CCc2sccc2C1, “deviation from nominal” read 13% (HPLC-MS/MS; feline citrate plasma; 12 h, 4 °C, storage stability).
CS(=O)(=O)OC[C@H](O)[C@@H]1CO1: “RBC/plasma partition coefficient” 0.6 (rat, Wistar, both sexes, red blood cells and plasma; intraperitoneal, 500 mg/kg treosulfan, 1 and 4 h).
O=C1Nc2ccccc2C(=O)CCc2ccc(O)cc21 has a kinetic solubility of 12.5 to 25 µg/mL (≈ 46.8 to 93.5 µM) (nephelometry; aqueous buffer; 30 min, pH 6.5).
[2H]C([2H])([2H])Oc1cc2c(cc1OC([2H])([2H])[2H])C1CC(=O)C(CC(C)C)CN1CC2 (centres unmarked) has a dose-normalized AUC(0-t) of 15.7 ng·h/mL (measured: deuterated α-HTBZ; healthy human volunteers, plasma; oral, 18 mg single dose, standard meal).
For O=C(Nc1c(Cl)c[n+]([O-])cc1Cl)c1ccc(OC(F)F)c(OCC2CC2)c1, the elimination half-life was 67.2 h (human adolescents, plasma; topical, 0.3% roflumilast cream once daily, 14 days).
For COc1cc(/C=C/C(=O)CC(=O)/C=C/c2ccc(O)c(OC)c2)ccc1O, “brain uptake ratio” read 6.18 (I-125 label, gamma counting; C57BL/6J mouse, cerebellum; IN 10 µg/mouse vs IP 100 µg/mouse, 30 min; baseline: intranasal over intraperitoneal).
CS/C(S)=N/CCCC[S+](C)[O-] (racemic): “mRNA fold change” 2.09 (RT-PCR, measured: Cyp2b3; rat, liver; oral gavage, 200 mg/kg, dosed for four days; baseline: vehicle).
CO[C@H]1C[C@@H]2CC[C@@H](C)[C@@](O)(O2)C(=O)C(=O)N2CCCC[C@H]2C(=O)O[C@H]([C@H](C)C[C@@H]2CC[C@@H](O)[C@H](OC)C2)CC(=O)[C@H](C)/C=C(\C)[C@@H](O)[C@@H](OC)C(=O)[C@H](C)C[C@H](C)/C=C/C=C/C=C/1C has a Cmax of 57.7 ng/mL (human, whole blood; oral, 60 mg, compound alone).
The haemolysis of C=CC(=C)CC[C@]1(C)[C@H](C)C[C@H](OC(=O)CCCCC)[C@@]23C(=C[C@H](O)C[C@@H]12)[C@@H](OC(C)=O)O[C@H]3OC(C)=O is reported as 16.3% (haemolysis; 20 µM).
The AUC(0-24) of Cc1nc(-c2ccc(OCC(C)C)c(C#N)c2)sc1C(=O)O is reported as 2760 ng·h/mL (adults with gout, plasma; oral, 40 mg, added: verinurad 2.5 mg).
The Vd/F of CCCC[C@H](NC(C)=O)C(=O)N[C@H]1CCC(=O)NC[C@@H](C(=O)N[C@@H](Cc2c[nH]c3ccccc23)C(N)=O)NC(=O)[C@H](CCCNC(=N)N)NC(=O)[C@@H](Cc2ccccc2)NC(=O)[C@H](Cc2c[nH]cn2)NC1=O is reported as 1 L/kg (male rat, plasma; subcutaneous, 1 mg/kg/day, multiple doses, once daily).
For CC[C@H](C)[C@@H]1NC(=O)[C@H](Cc2ccc(O)cc2)NC(=O)[C@@H](N)CSSC[C@@H](C(=O)N2CCC[C@H]2C(=O)N[C@@H](CC(C)C)C(=O)NCC(N)=O)NC(=O)[C@H](CC(N)=O)NC(=O)[C@H](CCC(N)=O)NC1=O, the AUC was 101 ± 51 pg·30 min/sample (microdialysis, RIA; male knockout mouse, amygdala ECF; i.p., 12 µg).
CCCOc1ccc([C@H]2CNC(=O)N2c2ccc3[nH]cnc3c2)cc1 has an AUC(0-tlast) of 61 ng·h/mL (human volunteers fasted, plasma; oral solution, 10 mg single dose, day 1, geometric mean).
CON gave an elimination half-life of 45.1 h (LC-MS/MS; cancer patients, plasma; iv infusion, 120 h, 16 cycles, added: oral temozolomide).
Cc1c(CN2CCN(C(=O)[C@H](C)O)CC2)sc2c(N3CCOCC3)nc(-c3cnc(N)nc3)nc12 has a V2/F of 639 L (human patients, plasma; oral).
Under “free plasma concentration”, Cc1ccc(C(=O)c2cc(O)c(O)c([N+](=O)[O-])c2)cc1 is recorded as 35 nM (rat, Sprague Dawley, male; intraperitoneal, 15 mg/kg, 4 h).
The aqueous solubility of C[N+]1(CC(=O)OC2CCCCCCCCCCC2)CCC(Cc2ccccc2)CC1.[I-] (centres unmarked) is reported as 113 µM (phosphate buffer with 2% DMSO; 90 min, pH 7.4, theoretical maximum 200 µM).
CCCC1O[C@@H]2C[C@H]3[C@@H]4CCC5=CC(=O)C=C[C@]5(C)[C@H]4[C@@H](O)C[C@]3(C)[C@]2(C(=O)CO)O1 (some centres unmarked) has a bioavailability of 59% (CD1 mice, plasma; subcutaneous, 0.2 mg/kg).
The Cmin of CN1CCN(c2ccc3nc(-c4c(N)c5c(F)cccc5[nH]c4=O)[nH]c3c2)CC1 is reported as 41.2 ± 9.3 ng/mL (NOD/SCID mice, male, blood or plasma; oral, 30 mg/kg once daily, 24 h).
O=C(O)/C=C/c1ccc(O)c(O)c1 gave an MRT(0-inf) of 13.2 ± 6.53 h (UPLC-MS/MS; Wistar rat, microcirculation dysfunction model, plasma; oral, 100 mg/kg Salvia miltiorrhiza stem-leaf extract FS).
N#CC[C@H](C1CCCC1)n1cc(-c2ncnc3[nH]ccc23)cn1 has a bioavailability of 6.22% (human; topical, 1.5% twice daily).
C/C=C/C=C/C=C\CC/C=C/C(=O)NCC(C)(C)O: “amount recovered, maximum” 10700 ng (human ileostomy patients, ileal effluent; oral, 5 g TU-100, 4 h, no β-glucuronidase treatment).
CC(C)=CCC[C@](C)(O[C@@H]1O[C@H](CO)[C@@H](O)[C@H](O)[C@H]1O)[C@H]1CC[C@]2(C)[C@@H]1[C@H](O)C[C@@H]1[C@@]3(C)CC[C@H](O)C(C)(C)[C@@H]3[C@@H](O[C@@H]3O[C@H](CO)[C@@H](O)[C@H](O)[C@H]3O[C@@H]3O[C@@H](C)[C@H](O)[C@@H](O)[C@H]3O)C[C@]12C gave an AUC(0-inf) of 2900 ± 500 ng·h/mL (Sprague Dawley rat, male, plasma; oral, 45 mg/kg, in white ginseng extract).
For O=C(CCCN1CCCN(c2ccc(Cl)cc2)CC1)c1ccc(F)cc1, “elimination rate constant” read 0.000417 ± 0.000133 s⁻¹ (male Sprague-Dawley rats, plasma; intravenous, 1.7 mg/kg, added: HAL 0.7 mg/kg plus BCT 0.1 mg/kg).
CC(C)[C@H](N)C(=O)NCCCS(=O)(=O)O has an AUC(0-12) of 13800 ± 3350 ng·h/mL (human, plasma; oral, 340 mg capsule, day 14, fasted, multiple dosing).
COc1cccc2c1C(=O)c1c(O)c3c(c(O)c1C2=O)C[C@@](O)(C(=O)CO)C[C@@H]3O[C@H]1C[C@H](N)[C@H](O)[C@H](C)O1 gave an AUC of 11.3 µM·h (mouse, E0771 tumour-bearing, plasma; intravenous, 92 µmol/kg).
For Br.Cc1ccc(Sc2ccccc2N2CCNCC2)c(C)c1, the elimination half-life was 61.3 h (healthy humans, plasma; oral, median, population PK model).
For CC1=C2C[C@H]3[C@@H](CC[C@@H]4C[C@H](NS(C)(=O)=O)CC[C@@]43C)[C@@H]2CC[C@@]2(C1)O[C@@H]1C[C@H](C)CN[C@H]1[C@H]2C, the AUC(0-24) was 8300 ng·h/mL (patients, plasma; oral, 160 mg daily, day 22, cycle 1).
CN(C)C/C=C/C(=O)Nc1cc2c(Nc3ccc(F)c(Cl)c3)ncnc2cc1O[C@H]1CCOC1: “t1/2 steady state” 40.5 h (human; oral, 60 mg once daily, day 27).
O=C1N=C(N2CCOCC2)CN1c1ccc(Cl)cc1 gave an AUC(0-inf) of 92400 ng·h/mL (female beagle dog, plasma; oral, 30 mg/kg, fasted).
CCCCCCCCCCCCCNCC(=O)N(CC(=O)N(CCCCN)CC(=O)N(CCN)CC(=O)N(CC(N)=O)Cc1ccc(Cl)cc1)Cc1ccc(Cl)cc1: “acetonitrile at elution” 71.1% (preparative RP-HPLC C18; water to acetonitrile gradient; 0.05% TFA in eluent; higher = more hydrophobic).
With C=CC(N)CCC(=O)O (centres unmarked) the AUC(0-inf) was 2420 ± 182 ng·h/mL (male Sprague-Dawley rat, plasma; intravenous, 1.0 mg/kg, formulation 0).
The parent remaining of CN[C@@H]1[C@H](O)[C@H](NC)[C@H]2O[C@]3(O)[C@H](O[C@@H]2[C@H]1O)O[C@H](C)C[C@H]3NC(=O)Cc1ccc(Cl)cn1 is reported as 99.9% (glutathione conjugation; human liver S9; 100 µM, 2 h, pH 7.4, added: glutathione 0.2 mM).
For Cc1c2c(n(-c3ccc(F)cc3Cl)c1-c1ccc(OS(=O)(=O)CCC(F)(F)F)cc1)CCN(N1CCCCC1)C2=O, the plasma concentration was 275 nM (LC-MS/MS; cynomolgus monkey 4, plasma; intravenous infusion, 0.6 mg/kg, 90 min, total concentration mid-point of PET).
CN1C(=O)c2ccccc2CCC(=O)c2ccccc21 has a kinetic solubility of over 100 µg/mL (nephelometry; aqueous buffer; 30 min, pH 6.5).
For COC(=O)N[C@H](C(=O)N[C@@H](Cc1ccccc1)[C@@H](O)CN(Cc1ccc(-c2ccccn2)cc1)NC(=O)[C@@H](NC(=O)OC)C(C)(C)C)C(C)(C)C, the AUC(0-24) was 40200 ng·h/mL (HIV-infected patients, plasma; oral, 300 mg once daily, day 1, steady state, added: ritonavir 100 mg once daily).
With CCCS(=O)(=O)Nc1ccc(F)c(C(=O)c2c[nH]c3ncc(-c4ccc(Cl)cc4)cc23)c1F the unbound fraction was 1.02e-05 ± 1.7e-06 (rapid equilibrium dialysis; 100% human plasma; 500 µM, 4 h).
For Cc1nc2cccc(OCC(C)(C)C(=O)NC(C)C)c2c(N)c1C(=O)O, the half-life was 1.17 h (female Sprague-Dawley rat, plasma; oral gavage, 10 mg/kg, day 7).
The AUC(0-12 h) of CC(=O)Nc1ccc(O[C@@H]2O[C@H](C(=O)O)[C@@H](O)[C@H](O)[C@H]2O)cc1 is reported as 89500 ng·h/mL (healthy volunteers, both sexes, plasma; oral, dose not given, day 2, added: favipiravir, acute).
Oc1ccc(-c2nc(-c3ccc(Oc4ccc(C(F)(F)F)cc4)cc3)no2)cc1 gave a distribution half-life of 6 h (ICR mice, female, plasma; oral, 50 mg/kg).
C[C@]12CC[C@@H]3c4ccc(O)cc4CC[C@H]3[C@@H]1C[C@@H](O)[C@@H]2O: “maximum serum concentration” 0 ng/mL (GC-MS; breast cancer women on NSAI, serum; vaginal, 0.03 mg, 8 h, day 0).
The AUC(0-12h) of CCN1C(=O)CNc2ncc(-c3ccc(-c4nc[nH]n4)nc3C)nc21 is reported as 1210 ng·h/mL (human, plasma; oral, 40 mg once daily, first dose).
CCc1nc(C(N)=O)c(Nc2ccc(N3CCC(N4CCN(C)CC4)CC3)c(OC)c2)nc1NC1CCOCC1 gave an oral bioavailability of over 61.2% (human, advanced solid tumours; oral, 120 mg, 14C mass balance, from excretion).
For Cc1ccc(NC(=O)c2ccc(CN3CCN(C)CC3)cc2)cc1Nc1nccc(-c2cncc(-c3oncc3C)c2)n1, the Tmax was 5 h (healthy volunteers, plasma; oral, 25.0 mg once daily, day 1, 7-day dosing, mean).
Under “elimination rate constant”, CCC(CC)O[C@@H]1C=C(C(=O)O)C[C@H](N)[C@H]1NC(C)=O is recorded as 2.58e-05 ± 3.61e-06 s⁻¹ (healthy Indian subjects, fed, plasma; oral, 75 mg oseltamivir phosphate, test capsule formulation).

Some of these lines once more:
The haemolysis of C=CC(=C)CC[C@]1(C)[C@H](C)C[C@H](OC(=O)CCCCC)[C@@]23C(=C[C@H](O)C[C@@H]12)[C@@H](OC(C)=O)O[C@H]3OC(C)=O is reported as 16.3% (haemolysis; 20 µM).
The AUC(0-24) of Cc1nc(-c2ccc(OCC(C)C)c(C#N)c2)sc1C(=O)O is reported as 2760 ng·h/mL (adults with gout, plasma; oral, 40 mg, added: verinurad 2.5 mg).
The Vd/F of CCCC[C@H](NC(C)=O)C(=O)N[C@H]1CCC(=O)NC[C@@H](C(=O)N[C@@H](Cc2c[nH]c3ccccc23)C(N)=O)NC(=O)[C@H](CCCNC(=N)N)NC(=O)[C@@H](Cc2ccccc2)NC(=O)[C@H](Cc2c[nH]cn2)NC1=O is reported as 1 L/kg (male rat, plasma; subcutaneous, 1 mg/kg/day, multiple doses, once daily).
For CC[C@H](C)[C@@H]1NC(=O)[C@H](Cc2ccc(O)cc2)NC(=O)[C@@H](N)CSSC[C@@H](C(=O)N2CCC[C@H]2C(=O)N[C@@H](CC(C)C)C(=O)NCC(N)=O)NC(=O)[C@H](CC(N)=O)NC(=O)[C@H](CCC(N)=O)NC1=O, the AUC was 101 ± 51 pg·30 min/sample (microdialysis, RIA; male knockout mouse, amygdala ECF; i.p., 12 µg).
CCCOc1ccc([C@H]2CNC(=O)N2c2ccc3[nH]cnc3c2)cc1 has an AUC(0-tlast) of 61 ng·h/mL (human volunteers fasted, plasma; oral solution, 10 mg single dose, day 1, geometric mean).
CON gave an elimination half-life of 45.1 h (LC-MS/MS; cancer patients, plasma; iv infusion, 120 h, 16 cycles, added: oral temozolomide).
